Results collected from several papers.
Protocols differ between the studies behind these lines. Values joined by “and” are separate records of one study, mostly repeats; a detail may differ. ± marks the error that the study gave.
TDP1: Tyrosyl-DNA phosphodiesterase 1 (TDP1, Homo sapiens, UniProt Q9NUW8)
Sequence of UniProt Q9NUW8 (whole entry, looked up): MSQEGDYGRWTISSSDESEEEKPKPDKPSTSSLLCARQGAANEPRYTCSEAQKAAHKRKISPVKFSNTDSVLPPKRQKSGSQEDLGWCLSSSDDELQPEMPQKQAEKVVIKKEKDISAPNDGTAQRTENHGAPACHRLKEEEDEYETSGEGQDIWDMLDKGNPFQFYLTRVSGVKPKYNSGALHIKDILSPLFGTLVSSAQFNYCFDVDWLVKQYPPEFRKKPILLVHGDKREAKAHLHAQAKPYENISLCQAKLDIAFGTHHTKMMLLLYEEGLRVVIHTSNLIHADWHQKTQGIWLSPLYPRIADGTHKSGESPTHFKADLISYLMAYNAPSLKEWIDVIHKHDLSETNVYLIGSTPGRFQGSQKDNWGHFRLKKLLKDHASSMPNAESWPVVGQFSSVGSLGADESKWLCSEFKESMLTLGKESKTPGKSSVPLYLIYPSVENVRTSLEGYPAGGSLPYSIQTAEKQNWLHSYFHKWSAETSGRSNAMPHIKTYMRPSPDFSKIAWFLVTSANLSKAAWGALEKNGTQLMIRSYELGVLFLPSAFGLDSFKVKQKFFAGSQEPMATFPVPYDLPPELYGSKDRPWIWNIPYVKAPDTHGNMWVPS

SMILES = COc1ccc(Nc2nc(Nc3ccc(OCCOCCOCC[18F])cc3)ncc2Br)cc1; system = ICR mice, S180 tumour-bearing, heart; setting = intravenous, 370 kBq, 120 min; endpoint = tissue uptake; value = 1.86 ± 0.13 %ID/g
SMILES = Cc1cc(C)n(CCN(CCN)CCCCCCNC(=O)[C@@H](N)Cc2c[nH]cn2)n1.[99Tc+].[C-]#[O+].[C-]#[O+].[C-]#[O+]; system = BALB/c nude mice, MCF7 xenograft, heart; setting = intravenous, 15 min; endpoint = tissue uptake; value = 1.51 ± 0.16 %IA/g
SMILES = COc1ccc2c(c1)C(C)(C)C(/C=C/C1=C(Oc3ccc(C(=O)NCCCCOc4cc(CN(Cc5ccccn5)Cc5ccccn5)cc(CN(Cc5ccccn5)Cc5ccccn5)c4)cc3)C(=C/C=C3/N(CCCCS(=O)(=O)[O-])c4ccc(OC)cc4C3(C)C)CCC1)=[N+]2CCCCS(=O)(=O)[O-].O=[N+]([O-])[O-].O=[N+]([O-])[O-].[99Tc+].[C-]#[O+].[C-]#[O+].[C-]#[O+].[Zn+2]; system = BALB/c mice, S. aureus myositis, urine and bladder; setting = 12 h post-injection; endpoint = tissue uptake; value = 0.57 %ID/g and 1.47 %ID/g and 3.02 %ID/g and 1.29 %ID/g
SMILES = N#CCn1cc(C=NOCc2ccc(-c3nc4cc(-c5ccccc5)ccn4c3Nc3ccc(C(=O)O)cc3)cc2)c2ccccc21; tested on = TDP1; assay = enzyme activity, inhibitor; setting = 100 µM, unpurified compound; endpoint = inhibition; value = 90.8%
SMILES = N#C[C@@H]1CCCN1C(=O)CNC(=O)c1ccnc2ccc(OCCCN3CCN(C(=O)CCc4ccc5c(c4)CN4CCN(Cc6cc(CCC(=O)O)ccc6O)CC(=O)[O][Al-]([18F])([O]C(=O)C4)[O]5)CC3)cc12 (stereo partly drawn); system = BALB/c nude mice, U-87 MG xenograft, spleen; setting = 1 h; endpoint = tissue uptake; value = 0.59 ± 0.2 %ID/g
SMILES = CC(C)C[C@H](NC(=O)[C@@H](CCCCNC(=O)[C@@H](Cc1ccccc1)NC(=O)CCCCCCCNC(=O)CN1CCN(CC(=O)O)CCN(CC(=O)O)CCN(CC(=O)O)CC1)NC(=O)[C@H](Cc1ccc(O)cc1)NC(=O)[C@H](CO)NC(=O)[C@H](Cc1c[nH]c2ccccc12)NC(=O)[C@H](Cc1c[nH]cn1)NC(=O)[C@@H]1CCC(=O)N1)C(=O)N[C@@H](CCCNC(=N)N)C(=O)N1CCC[C@H]1C(=O)NCC(N)=O [indium-111 labelled]; system = male athymic nude mice, DU-145 prostate cancer xenograft, lung; setting = intravenous, dose not given, 1 h, added: unlabeled blocking peptide 10 µg; endpoint = tissue uptake; value = 0.72 ± 0.16 %ID/g
SMILES = Cn1ncc(Cl)c1C=NOCc1ccc(-c2nc3cc(-c4ccccc4)ccn3c2Nc2ccc(C(=O)O)cc2)cc1; tested on = TDP1; assay = enzyme activity, inhibitor; setting = 100 µM, unpurified compound; endpoint = inhibition; value = 31.4%
SMILES = O=C([O-])CN1CCN(CC(=O)[O-])CCN(CC(=O)NC[C@H]2CC[C@H](C(=O)N[C@H](Cc3cnc4ccccc4c3)C(=O)NCCCC[C@H](NC(=O)N[C@@H](CCC(=O)O)C(=O)O)C(=O)O)CC2)CCN(CC(=O)[O-])CC1.[64Cu+2]; assay = ex vivo gamma counting; system = 22Rv1 tumour-bearing mice, tumor; setting = intravenous, 0.74 MBq, 24 h post-injection; endpoint = tissue uptake; value = 12.2 %ID/g
SMILES = O=C(NCC1OC2CCC=CCCC2O1)c1ccc([18F])nc1 (stereo not drawn); system = healthy female BALB/c nude mice, heart; setting = intravenous, 7.4 MBq per mouse, 10 min; endpoint = tissue uptake; value = 5.8 ± 2 %ID/g
SMILES = CCCC[C@H](NC(=O)COCCOCCNC(=O)CN1CCN(CC(=O)O)CCN(CC(=O)O)CC1)C(=O)N[C@H]1CC(=O)NCCCC[C@@H](C(N)=O)NC(=O)[C@H](Cc2c[nH]c3ccccc23)NC(=O)[C@H](CCCNC(=N)N)NC(=O)[C@@H](Cc2ccccc2)NC(=O)[C@H](Cc2c[nH]cn2)NC1=O [fluorine-18 labelled]; system = C57 mice B16-F10 melanoma, heart; setting = intravenous, 0.37 MBq, 0.5 h; endpoint = tissue uptake; value = 1.03 ± 0.13 %ID/g
SMILES = COc1ccc(Nc2nc(Nc3ccc(OCCOCC[18F])cc3)ncc2Br)cc1; system = ICR mice, S180 tumour-bearing, liver; setting = intravenous, 370 kBq, 120 min; endpoint = tissue uptake; value = 1.73 ± 0.25 %ID/g
SMILES = CCCC[C@H](NC(=O)CNC(=O)CNC(=O)[C@H](CCCCNC(=O)[C@H](CCN)NC(=O)C(C)c1ccc(CC(C)C)cc1)NC(=O)CN1CCN(CC(=O)O)CCN(CC(=O)O)CCN(CC(=O)O)CC1)C(=O)N[C@H]1CC(=O)NCCCC[C@@H](C(N)=O)NC(=O)[C@H](Cc2c[nH]c3ccccc23)NC(=O)[C@H](CCCNC(=N)N)NC(=O)[C@@H](Cc2ccccc2)NC(=O)[C@H](Cc2c[nH]cn2)NC1=O (stereo partly drawn) [lutetium-177 labelled]; system = C57 mice, tumour-bearing, muscle; setting = 2 h; endpoint = tissue uptake; value = 0.33 ± 0.07 %ID/g

A few entries again:
SMILES = N#C[C@@H]1CCCN1C(=O)CNC(=O)c1ccnc2ccc(OCCCN3CCN(C(=O)CCc4ccc5c(c4)CN4CCN(Cc6cc(CCC(=O)O)ccc6O)CC(=O)[O][Al-]([18F])([O]C(=O)C4)[O]5)CC3)cc12 (stereo partly drawn); system = BALB/c nude mice, U-87 MG xenograft, spleen; setting = 1 h; endpoint = tissue uptake; value = 0.59 ± 0.2 %ID/g
